Results from different studies.
Numbered parts are unrelated; each lists some results of a single study.

Sample 1 — technique: RNA Bind-n-Seq; molecule type: RNA; matrix: in vitro; concentration: not given; relative to: input RNA pool; reading: higher = stronger binding
Target: RING finger protein unkempt homolog, zinc fingers 1-6, GST-SBP tag (UNK, Homo sapiens, UniProt Q9C0B0, residues 30-357)
Chain of UniProt Q9C0B0 (30-357, looked up): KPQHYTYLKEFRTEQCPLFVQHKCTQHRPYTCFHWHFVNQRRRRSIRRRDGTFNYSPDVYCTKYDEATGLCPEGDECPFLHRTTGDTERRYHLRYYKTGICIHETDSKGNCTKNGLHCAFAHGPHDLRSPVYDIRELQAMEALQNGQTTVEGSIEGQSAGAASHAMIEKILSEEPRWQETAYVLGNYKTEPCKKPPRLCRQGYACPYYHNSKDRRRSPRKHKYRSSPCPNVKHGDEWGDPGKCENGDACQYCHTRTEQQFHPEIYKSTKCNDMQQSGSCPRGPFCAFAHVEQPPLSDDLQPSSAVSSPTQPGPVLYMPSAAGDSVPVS
Setting: RNA with constant flanks, human-mouse chimeric sites, ends assumed
Constant ends, left off below: GGGAGUUCUACAGUCCGACGAUC … CAACAGAGGAUUGAGCAUCA
| Strand | bound/input enrichment [ratio] |
| --- | --- |
| AAAUUUCCCCUCCUGAGACCUCCUCCGAAGUUGGAGUCUCUUACAGAUGCCUCAUCCCCUGUUAGCGUUUUAGUUUGGACCACCCAGCCUUGGACAAUUCCAGCCAACCAGGCAAUUUGC | 1.17 |
| GAUCCACAGUGGUCUGAGGAACAGCUGAUUGCUGCAAAAUUUUGCUUUGCUGGCCUUGUUAUAGGGCAGACUGAAGUGGACAUCAUGAGUCAUGCCACACAAGCUAUUUUUGAAAUUCUG | 0.222 |
| GUUGCCAGCUUCCGGUUCCGUUGGGCUCGGUUCUCUCCUGAGCUACGGUCCCUGGCACUCUCAAUCCGCCAUCCAACGGCAGUCAUGCAGGUAAUGCAGUUUGUGGAGCCCAGCCGGCAG | 0.115 |
| GCUCCUCCCCGCUCUGCAGCCUGGGGACACUGGGCUGGGACCAGAAUCCAGCUUUCUUUUAAUAGUGUCAGUGUAACUGUAUCCCGUGACAUUUCAUUUUUUUUUUAUAGUGUAUUUUUU | 36.4 |
| AGAUUCCCCCUCCUGAGACCUCCUCCGAAAUUGGCAUCUCUUACAGAUGCCUCAUCCCCUGUUAGUAUUUUAGUUUGGACCACCCAGCCUUGGACAAUUCCCGCCAACCAGGCAAUUUGC | 4.27 |
| AAAGAGUGGAUAGAGUGUGCACAUGGAAUCGGUUAUACCCGGGCGAAAAAGGAGUGCAAGAUAGAGUUCGAUGACUUCGAAGAGUGCUUGCUUCGGUACAAAACGAUGAGGCGAAUGCAU | 0.571 |
| UAAGUUAUUUUGUACAGCUUUGUAAAUUCUUAACAUUAAUUUGUAAACAUGUUUAUUUUGUUUGGGUAAUUUGGUUCAUUAAGUACAUAGCUAAGGUAAUGAACAUCUUUUUCAGUAAUU | 0.444 |
| CGGAGCCCUCCUCUCCCACAGGCCCAAGAUAUAACCCACCAGUGCCUUUUGUCUUCCUGUCAGCUCUAAUCAAUCAUCCUGUCCUCUCACGCCCACACCAAGUGCCCAAAGUGGGGAGGG | 0.661 |
| GUAGCUGGCCAUUAGGAAAUGCUGGUAAUUUCAGUCACUUGCUGAUGACUUCUGAUGUCCCAGCAAAUAAUGCCACAGUUGACUGCUGAGAAGAUACUUCUGAGGACCCACGUCUAAGGU | 0.302 |
| CUGAGGAUACCACUGAAAGAGACAUUAAAGAAUCAUUUGAGGGCUCUGUUCGUGCAAGAAUAGUCACCUGACCGGGAACUGGUUCUUCCAAAGGGUUUGGUUUUGUAGACUUUAAUAGUG | 0.994 |
| GCUCUUGGGAAUGUAAUCAGCGCCUUGGGGGACAAGAGCAAGAGGGCCACCCAUGUCCCCUAUAGAGACUCUAAGCUGACAAGACUCUUGCAGGAUUCCCUUGGGGGUAACAGCCAAACC | 0.186 |

Sample 2 — technique: protein-binding microarray; molecule type: double-stranded DNA, one strand shown; matrix: in vitro; concentration: 250 nM; setting: 60-bp whole probe; added: salmon DNA 0.4 mg/ml; relative to: random background probes; reading: higher = stronger binding; constant ends, left off below: GCCTAGCAC … GTCTTGATTCGCTTGACGCTGCTG
Target: Interferon regulatory factor 7, full length, phosphomimetic (IRF7, Homo sapiens, UniProt Q92985, residues 1-503, S101K/S471D/S472D/S475D/S476D/S477D/S483D/S484D/S487D)
Target sequence (chain): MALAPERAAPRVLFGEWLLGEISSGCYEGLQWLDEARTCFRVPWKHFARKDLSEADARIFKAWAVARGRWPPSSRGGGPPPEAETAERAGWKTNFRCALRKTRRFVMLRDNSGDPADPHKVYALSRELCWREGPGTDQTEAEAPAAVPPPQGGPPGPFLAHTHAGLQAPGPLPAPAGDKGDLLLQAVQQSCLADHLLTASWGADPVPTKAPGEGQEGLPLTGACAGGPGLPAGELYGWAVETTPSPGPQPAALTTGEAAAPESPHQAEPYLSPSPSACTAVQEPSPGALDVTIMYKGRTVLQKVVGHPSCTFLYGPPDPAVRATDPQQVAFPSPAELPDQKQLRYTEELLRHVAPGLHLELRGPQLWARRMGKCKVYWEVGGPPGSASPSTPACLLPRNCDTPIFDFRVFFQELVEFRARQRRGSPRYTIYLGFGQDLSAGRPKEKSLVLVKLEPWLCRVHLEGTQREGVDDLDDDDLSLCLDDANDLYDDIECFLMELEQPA
| Strand | log fluorescence [z-score] |
| --- | --- |
| TCACCATTGGTCTTCACACTGTGCTAG | -0.152 |
| GACGAGTTCAGTCTCGAGACGTGCTAG | 0.582 |
| TCATGCATCTGATTTCTCACTGTGCTA | -0.222 |
| ATTCTCTTCTTGCATCTGGGTGTGCTA | 1.7 |
| TTTAAAGAACCCACTATCTTGTGCTAG | 0.131 |
| TTTCTTTTCCATTTTGTGTTGTGCTAG | 3.4 |
| GACGGTTTCCTTTACCTGACGTGCTAG | 1.87 |
| TAAGAACTGGGGTTTCGATTAGTGCTA | 6.3 |
| TCATATTTGCAACATCCCACTGTGCTA | 0.686 |
| TTCGAACTGAGACTGGATTAGTGCTAG | -0.225 |
| CCATTCTTGGGACTCACCTGGTGCTAG | 1.35 |
| GACGCTCTCGGACTGGGGACGTGCTAG | -0.139 |
| AAACTTACCTCACTCGTTAAGTGCTAG | 0.225 |
| GACGATATCAGTCTAGAGACGTGCTAG | -0.329 |
| TTAGACATCGGGTTTCGATTAGTGCTA | 6.42 |
| GATGATTTCAGACTGGAGACGTGCTAG | -0.233 |
| GATGGTTTCGGTCTCGGGACGTGCTAG | 8.55 |
| TTAGAACTGGGGTATCGAGTAGTGCTA | -0.493 |
| TATGTTTTTCATTTTGTTCAGTGCTAG | 2.76 |
| GACGGACTTGGTTTCGGGACGTGCTAG | 3.75 |

Sample 3 — technique: RNA Bind-n-Seq; molecule type: RNA; matrix: in vitro; concentration: 365 nM; relative to: no-protein control; reading: higher = stronger binding
Target: RNA binding protein fox-1 homolog 2, RRM domain, GST-SBP tag (RBFOX2, Homo sapiens, UniProt O43251-10, residues 100-194)
Setting: natural RNA segment, single round, ends assumed
Constant ends, left off below: GGGAGUUCUACAGUCCGACGAUC … UGGAAUUCUCGGGUGCCAA
Construct (chain): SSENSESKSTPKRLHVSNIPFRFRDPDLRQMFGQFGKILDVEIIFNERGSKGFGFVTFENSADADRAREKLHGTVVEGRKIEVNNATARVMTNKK
| Strand | RBNS enrichment (R) |
| --- | --- |
| CAAAAGCUGCUGUCACAAUUUCAUUCCGAGGCCAUCUUGCCCCUCCCCCUUCACUCUGCCUUCCUGAGUUGGCCCCACUCUGCACGGGAGGGAGGGCCCACCUUAGACUG | 1.31 |
| AUAAAGUUCAAAACCGCUGUCAUGGCCCCAUGUGAUCUCUCCCUCCCCUACCCCUCUAUCAUUUAGUUUCUUCUGCGCAAGCCACUCUGGCUUCCUUUCAGUUUUGUGGU | 0.699 |
| CCCAUGAAGGAAAAAUUAGAGUUACUUUUCUCAUUUUGUGCAUUGAUAUAUUUUUACAAUCCUGCAAACUUCCUUGAGUCACUCACGACUCCCCCUGAGGUCACUUCCUG | 0.333 |
| AGCUUGUGAAGAUUGGGGACACUCAUAUUGCCCUAAUUAAAAACUGUGAUUUUUAUCACAAGGGAGGGGAGGCCGAGAGUCAGACUGAUAGACACCAUAGGAGCCGACUC | 0.766 |
| UGAAGAUAGACUGUUGGAGUGGACCACGGCCAAGCUUGCUCCGUCCUCGGACAGGAAGCCACCCUGCGUGGGGGACUGCAGGCACGCAAAAUAAAAUAACUCCUGCUCGU | 0.184 |
| UCACAAGAUCUCCUCCUCAGUGUCUGUCUGUCUGUCUGUCUGUCUGCCUGGCAUCUGAUGGGUCAGGUCAAGCCCGUGCUGGUUUUGACUAAGGGUAGAGACUAAGGGGA | 0.755 |
| UUCCCACCCCCUCCUGCCAGCACACAGCCUGGGGUCCCUCCCUCAGGGGCUGUAAGGGAAGGCCCACCCCAACUCUUACCAGGAGCUGCUACAGGCAGAGCCCAGCACUG | 0.642 |
| AUUAUUUUUUUAAACCAUCGUUAAUAUACUGAAGUGAGCUAUAGCACAUAUCAUGUGCUUAGUUUGUUUAUUUUUCUCCAUCUCCCCUUGGCUUCCUAGAGUUUGGACAU | 0.295 |
| CCAAGUCCUAGGAAAUAAUGCUUGUAAUAAACUUAACUGUGUUACAUCAGUAGGUAAAAUACAUAAUGUUACAUAGUGUAAUAUGAUAUGAUGUGAUUAAAUUAUAGUUC | 0.373 |

Sample 4 — technique: protein binding microarray; molecule type: double-stranded DNA, one strand shown; matrix: in vitro; concentration: not given; relative to: not given; reading: higher = stronger binding
Target: Histone acetyltransferase KAT6A, winged helix 1, GST fusion (KAT6A, Homo sapiens, UniProt Q92794, residues 1-85)
Setting: 8-mer, flanks averaged, mean of 2 arrays, mostly near background
Construct (chain): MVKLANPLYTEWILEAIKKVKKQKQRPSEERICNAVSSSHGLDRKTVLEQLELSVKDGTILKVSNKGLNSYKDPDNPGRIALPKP
| Strand | E-score |
| --- | --- |
| TATCAAGA | -0.318 |
| CTTATACC | -0.0725 |
| CGCTGTCC | 0.231 |
| CTGACGAC | -0.145 |
| ATGAGTAA | -0.0444 |
| GAATAACA | -0.162 |
| CTAAGCGC | 0.325 |
| GGCAAAGA | 0.157 |
| ATGTTTTC | -0.016 |
| CACGGTGC | 0.123 |
| GAGGCGAA | -0.0304 |
| CCGTGGAA | 0.252 |
| ACCCCCTC | -0.194 |
| AGCAGCTC | -0.142 |
| AAGTTCAG | -0.148 |
| AGAAGTGG | -0.144 |
| CGTGACTA | 0.00936 |
| CCACGATA | -0.28 |
| AAGGTGTA | 0.0161 |
| ATCACGAT | -0.143 |
| CGCGCCTA | 0.38 |
| CTGAGACA | -0.306 |
| ATTCGCTG | -0.0436 |
| AAATGCTG | -0.365 |
| ATACACGC | 0.236 |
